# Published values from different studies.
# By UniProt entry, the sequences of proteins in these tests, tags left out. Residues count along the entry.
# UniProt P31645, whole entry: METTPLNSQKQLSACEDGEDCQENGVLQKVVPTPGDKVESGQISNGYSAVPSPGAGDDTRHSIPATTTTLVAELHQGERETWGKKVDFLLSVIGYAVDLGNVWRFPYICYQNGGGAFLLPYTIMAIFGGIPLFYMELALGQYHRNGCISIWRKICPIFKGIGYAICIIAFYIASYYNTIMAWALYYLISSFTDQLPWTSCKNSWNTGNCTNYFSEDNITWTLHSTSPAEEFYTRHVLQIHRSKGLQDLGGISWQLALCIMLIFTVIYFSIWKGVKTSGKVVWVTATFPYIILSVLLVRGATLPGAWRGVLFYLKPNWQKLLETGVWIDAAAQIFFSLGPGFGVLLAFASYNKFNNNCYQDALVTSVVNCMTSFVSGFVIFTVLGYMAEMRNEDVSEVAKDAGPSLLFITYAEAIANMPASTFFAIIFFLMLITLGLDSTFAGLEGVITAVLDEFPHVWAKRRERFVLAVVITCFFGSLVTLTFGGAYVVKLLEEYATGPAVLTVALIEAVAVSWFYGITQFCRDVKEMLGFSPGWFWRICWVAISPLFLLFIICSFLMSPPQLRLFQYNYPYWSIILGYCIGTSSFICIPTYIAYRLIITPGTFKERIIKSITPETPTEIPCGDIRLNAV
# UniProt P07384, whole entry: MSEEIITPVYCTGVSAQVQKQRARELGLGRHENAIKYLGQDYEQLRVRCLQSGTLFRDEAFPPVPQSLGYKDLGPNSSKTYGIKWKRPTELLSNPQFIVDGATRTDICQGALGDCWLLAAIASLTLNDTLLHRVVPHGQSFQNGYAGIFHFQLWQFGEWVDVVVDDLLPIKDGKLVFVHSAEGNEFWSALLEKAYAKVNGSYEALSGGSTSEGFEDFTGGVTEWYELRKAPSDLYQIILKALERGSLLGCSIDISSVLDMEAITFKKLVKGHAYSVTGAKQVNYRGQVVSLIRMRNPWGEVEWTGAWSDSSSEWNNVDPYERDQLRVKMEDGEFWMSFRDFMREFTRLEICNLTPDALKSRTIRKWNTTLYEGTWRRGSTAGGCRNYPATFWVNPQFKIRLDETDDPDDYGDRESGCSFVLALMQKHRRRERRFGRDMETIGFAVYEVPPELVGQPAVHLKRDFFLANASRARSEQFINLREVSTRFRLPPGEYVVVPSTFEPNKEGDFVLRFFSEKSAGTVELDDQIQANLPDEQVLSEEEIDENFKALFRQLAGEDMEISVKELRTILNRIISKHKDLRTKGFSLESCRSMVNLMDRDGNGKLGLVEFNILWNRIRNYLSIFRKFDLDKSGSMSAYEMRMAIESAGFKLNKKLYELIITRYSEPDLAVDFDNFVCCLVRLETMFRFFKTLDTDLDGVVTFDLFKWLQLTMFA
# UniProt P05067, whole entry, looked up: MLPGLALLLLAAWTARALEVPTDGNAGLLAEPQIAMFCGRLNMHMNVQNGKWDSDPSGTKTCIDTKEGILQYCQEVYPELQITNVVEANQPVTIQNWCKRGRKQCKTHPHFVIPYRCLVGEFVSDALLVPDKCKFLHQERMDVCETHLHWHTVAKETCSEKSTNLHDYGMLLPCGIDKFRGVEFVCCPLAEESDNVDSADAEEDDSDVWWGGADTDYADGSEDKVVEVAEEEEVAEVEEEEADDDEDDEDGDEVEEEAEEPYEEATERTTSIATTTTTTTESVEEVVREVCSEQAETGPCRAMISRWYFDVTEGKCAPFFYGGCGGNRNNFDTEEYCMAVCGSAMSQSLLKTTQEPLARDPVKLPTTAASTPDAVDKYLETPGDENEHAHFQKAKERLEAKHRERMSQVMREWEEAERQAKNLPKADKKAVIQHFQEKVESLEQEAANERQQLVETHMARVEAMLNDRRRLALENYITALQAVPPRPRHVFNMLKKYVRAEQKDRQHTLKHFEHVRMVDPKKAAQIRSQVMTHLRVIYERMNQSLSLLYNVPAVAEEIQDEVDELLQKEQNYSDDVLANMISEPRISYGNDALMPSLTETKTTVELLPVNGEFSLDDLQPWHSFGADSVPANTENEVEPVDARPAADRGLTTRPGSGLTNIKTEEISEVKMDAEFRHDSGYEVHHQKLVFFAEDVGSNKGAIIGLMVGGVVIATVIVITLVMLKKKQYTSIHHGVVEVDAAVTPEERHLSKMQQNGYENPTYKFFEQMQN
# UniProt Q9R0C9, whole entry: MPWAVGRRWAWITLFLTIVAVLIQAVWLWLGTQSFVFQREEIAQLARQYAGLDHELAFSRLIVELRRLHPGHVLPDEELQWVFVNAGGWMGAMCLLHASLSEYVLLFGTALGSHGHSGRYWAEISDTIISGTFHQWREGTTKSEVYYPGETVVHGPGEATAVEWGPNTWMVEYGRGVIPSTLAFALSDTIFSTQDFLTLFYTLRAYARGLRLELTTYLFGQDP
# UniProt Q99685, whole entry: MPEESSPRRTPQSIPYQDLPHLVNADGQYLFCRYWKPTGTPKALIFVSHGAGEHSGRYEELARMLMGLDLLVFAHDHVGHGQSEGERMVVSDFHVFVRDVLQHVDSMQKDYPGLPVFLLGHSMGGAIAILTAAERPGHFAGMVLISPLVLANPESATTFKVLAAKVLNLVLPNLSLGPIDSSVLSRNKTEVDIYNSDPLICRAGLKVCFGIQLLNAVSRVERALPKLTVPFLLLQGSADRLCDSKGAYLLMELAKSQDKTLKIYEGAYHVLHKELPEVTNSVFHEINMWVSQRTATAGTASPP
# UniProt Q9HCG7, whole entry: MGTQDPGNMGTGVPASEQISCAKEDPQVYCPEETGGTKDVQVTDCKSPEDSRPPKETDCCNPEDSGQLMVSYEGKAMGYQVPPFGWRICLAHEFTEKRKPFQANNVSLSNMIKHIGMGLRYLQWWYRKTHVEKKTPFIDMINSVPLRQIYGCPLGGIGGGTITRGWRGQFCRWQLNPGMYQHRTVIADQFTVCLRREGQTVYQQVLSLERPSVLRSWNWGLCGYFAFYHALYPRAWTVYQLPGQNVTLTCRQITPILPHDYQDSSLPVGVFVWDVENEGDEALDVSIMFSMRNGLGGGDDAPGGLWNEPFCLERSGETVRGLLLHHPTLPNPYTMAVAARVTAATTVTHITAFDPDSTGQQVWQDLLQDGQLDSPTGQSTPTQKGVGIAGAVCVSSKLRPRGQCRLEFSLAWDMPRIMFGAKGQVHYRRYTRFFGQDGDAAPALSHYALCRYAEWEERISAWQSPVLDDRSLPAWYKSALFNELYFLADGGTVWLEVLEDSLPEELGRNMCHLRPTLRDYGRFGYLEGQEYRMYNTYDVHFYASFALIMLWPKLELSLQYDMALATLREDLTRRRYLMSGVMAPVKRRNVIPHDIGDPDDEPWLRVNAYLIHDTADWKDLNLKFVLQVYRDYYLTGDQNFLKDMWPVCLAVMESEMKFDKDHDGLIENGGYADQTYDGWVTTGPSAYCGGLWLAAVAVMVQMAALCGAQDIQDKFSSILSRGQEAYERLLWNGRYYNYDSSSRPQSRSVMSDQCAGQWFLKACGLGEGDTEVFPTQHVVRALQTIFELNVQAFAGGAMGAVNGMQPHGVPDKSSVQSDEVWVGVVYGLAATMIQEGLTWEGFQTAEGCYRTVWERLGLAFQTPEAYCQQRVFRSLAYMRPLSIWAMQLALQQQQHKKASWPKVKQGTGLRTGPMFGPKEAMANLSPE
# UniProt Q9NTG7, whole entry, looked up: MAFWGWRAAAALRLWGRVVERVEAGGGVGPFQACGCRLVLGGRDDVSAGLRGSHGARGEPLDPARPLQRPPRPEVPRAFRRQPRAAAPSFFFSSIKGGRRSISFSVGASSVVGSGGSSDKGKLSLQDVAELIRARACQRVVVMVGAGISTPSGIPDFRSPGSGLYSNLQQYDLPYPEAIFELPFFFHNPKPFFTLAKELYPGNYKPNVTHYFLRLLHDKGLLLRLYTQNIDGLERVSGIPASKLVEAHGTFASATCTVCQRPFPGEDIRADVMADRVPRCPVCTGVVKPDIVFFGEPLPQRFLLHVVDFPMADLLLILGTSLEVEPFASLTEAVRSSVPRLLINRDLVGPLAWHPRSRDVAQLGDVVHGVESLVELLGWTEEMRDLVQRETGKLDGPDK
# UniProt P56658, whole entry: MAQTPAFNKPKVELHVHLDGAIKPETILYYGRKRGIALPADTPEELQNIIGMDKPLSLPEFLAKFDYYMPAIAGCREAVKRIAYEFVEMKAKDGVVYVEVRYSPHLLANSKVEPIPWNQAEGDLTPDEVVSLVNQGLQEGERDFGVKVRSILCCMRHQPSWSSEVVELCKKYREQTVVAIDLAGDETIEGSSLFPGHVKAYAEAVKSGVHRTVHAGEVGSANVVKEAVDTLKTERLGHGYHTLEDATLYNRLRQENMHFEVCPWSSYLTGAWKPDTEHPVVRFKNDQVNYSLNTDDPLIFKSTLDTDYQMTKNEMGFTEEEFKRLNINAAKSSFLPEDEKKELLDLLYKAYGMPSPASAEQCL
# UniProt P38158, whole entry: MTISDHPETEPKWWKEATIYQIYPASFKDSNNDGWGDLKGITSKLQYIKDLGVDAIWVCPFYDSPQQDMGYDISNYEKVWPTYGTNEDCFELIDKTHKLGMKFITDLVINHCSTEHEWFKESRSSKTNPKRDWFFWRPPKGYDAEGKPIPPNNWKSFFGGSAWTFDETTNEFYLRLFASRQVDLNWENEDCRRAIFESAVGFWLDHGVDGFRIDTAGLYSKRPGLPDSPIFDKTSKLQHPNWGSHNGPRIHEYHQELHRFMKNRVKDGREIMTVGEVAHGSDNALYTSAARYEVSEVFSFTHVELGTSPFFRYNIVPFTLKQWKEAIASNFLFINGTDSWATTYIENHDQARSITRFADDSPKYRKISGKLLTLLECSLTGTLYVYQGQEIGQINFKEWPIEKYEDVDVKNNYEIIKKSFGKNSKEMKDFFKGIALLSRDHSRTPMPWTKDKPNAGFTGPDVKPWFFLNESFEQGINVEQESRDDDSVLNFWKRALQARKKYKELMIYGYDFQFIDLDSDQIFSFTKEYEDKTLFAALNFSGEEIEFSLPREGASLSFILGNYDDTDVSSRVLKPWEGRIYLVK
# UniProt Q01959, whole entry: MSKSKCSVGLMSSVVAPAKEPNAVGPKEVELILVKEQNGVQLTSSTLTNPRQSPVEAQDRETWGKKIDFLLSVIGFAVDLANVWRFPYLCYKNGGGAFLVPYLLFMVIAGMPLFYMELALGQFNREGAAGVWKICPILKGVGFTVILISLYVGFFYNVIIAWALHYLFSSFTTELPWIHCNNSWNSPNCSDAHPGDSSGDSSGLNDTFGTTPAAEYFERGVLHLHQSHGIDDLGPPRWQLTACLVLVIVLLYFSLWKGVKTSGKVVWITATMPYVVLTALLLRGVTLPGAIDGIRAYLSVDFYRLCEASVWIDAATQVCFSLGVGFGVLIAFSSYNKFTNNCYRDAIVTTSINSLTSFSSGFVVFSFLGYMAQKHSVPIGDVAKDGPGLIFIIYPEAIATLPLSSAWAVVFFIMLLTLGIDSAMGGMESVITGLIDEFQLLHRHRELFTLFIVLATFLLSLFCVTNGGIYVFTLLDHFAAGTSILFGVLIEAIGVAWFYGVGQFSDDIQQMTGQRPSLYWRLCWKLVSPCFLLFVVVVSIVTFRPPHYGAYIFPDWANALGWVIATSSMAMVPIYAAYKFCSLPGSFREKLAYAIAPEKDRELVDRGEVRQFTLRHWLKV
# UniProt Q96EB6, whole entry, looked up: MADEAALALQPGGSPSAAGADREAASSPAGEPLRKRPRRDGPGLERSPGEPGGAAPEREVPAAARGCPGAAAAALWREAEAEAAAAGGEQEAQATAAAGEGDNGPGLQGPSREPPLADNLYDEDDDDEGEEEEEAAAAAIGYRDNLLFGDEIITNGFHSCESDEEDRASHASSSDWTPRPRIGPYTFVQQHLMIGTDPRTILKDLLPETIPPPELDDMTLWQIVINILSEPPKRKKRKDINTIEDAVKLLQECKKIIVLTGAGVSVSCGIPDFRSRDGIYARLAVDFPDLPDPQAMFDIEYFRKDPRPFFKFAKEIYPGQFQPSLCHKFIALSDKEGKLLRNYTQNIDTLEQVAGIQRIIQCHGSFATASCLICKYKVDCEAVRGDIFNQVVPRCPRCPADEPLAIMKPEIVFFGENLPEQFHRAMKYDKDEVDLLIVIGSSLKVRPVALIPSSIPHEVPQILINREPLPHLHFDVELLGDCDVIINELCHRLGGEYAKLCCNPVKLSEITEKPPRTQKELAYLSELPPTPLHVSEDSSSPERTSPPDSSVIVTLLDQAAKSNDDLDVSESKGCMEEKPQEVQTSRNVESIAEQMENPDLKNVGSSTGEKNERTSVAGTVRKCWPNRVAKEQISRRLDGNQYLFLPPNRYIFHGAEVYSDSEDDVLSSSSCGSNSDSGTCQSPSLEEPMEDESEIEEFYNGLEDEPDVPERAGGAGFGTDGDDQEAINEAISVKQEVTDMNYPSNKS
# UniProt P08246, 30-247 limits assumed: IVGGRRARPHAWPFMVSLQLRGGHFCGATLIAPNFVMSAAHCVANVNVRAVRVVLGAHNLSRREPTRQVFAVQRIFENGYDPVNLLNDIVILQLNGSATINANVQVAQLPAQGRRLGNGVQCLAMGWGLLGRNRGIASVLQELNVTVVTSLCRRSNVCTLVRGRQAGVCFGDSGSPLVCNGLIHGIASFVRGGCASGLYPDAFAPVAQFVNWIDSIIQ
# Protocols differ between the studies behind these lines. ± marks the error that the study gave.
# SLC6A4: Sodium-dependent serotonin transporter (SLC6A4, Homo sapiens, UniProt P31645)
# CAPN1: Calpain-1 catalytic subunit (CAPN1, Homo sapiens, UniProt P07384)
# APP Aβ1-40: Amyloid-beta precursor protein, Aβ1-40 (APP, Homo sapiens, UniProt P05067)
# Sigmar1: Sigma non-opioid intracellular receptor 1 (Sigmar1, Rattus norvegicus, UniProt Q9R0C9)
# SIRT6: NAD-dependent protein deacylase sirtuin-6 (SIRT6, Homo sapiens, UniProt Q8N6T7)
# MGLL: Monoglyceride lipase (MGLL, Homo sapiens, UniProt Q99685)
# GBA2: Beta-glucosidase (GBA2, Homo sapiens, UniProt Q9HCG7)
# SIRT3: NAD-dependent protein deacetylase sirtuin-3, mitochondrial (SIRT3, Homo sapiens, UniProt Q9NTG7)
Compound,target or system,assay,system,setting,scale,measurement,value
CNc1nc(C#Cc2ccc(Cl)s2)nc2c1ncn2[C@H]1[C@H](O)[C@H](O)[C@]2(C(=O)OC(C)C)C[C@H]12,SLC6A4,"binding, radioligand binding",HEK293,"10 µM, negative means enhanced binding, added: [3H]citalopram",,inhibition,13 ± 1%
O=C(NC1CC1)C(=O)[C@H](Cc1ccccc1)NC(=O)[C@H]1CCC(=O)N1Cc1ccccc1,CAPN1,"enzyme activity, inhibitor",,1 µM,,inhibition,86.7%
Oc1ccccc1C1=NCCCO1,"Adenosine deaminase (ADA, Bos taurus, UniProt P56658)","enzyme activity, inhibitor, fluorescence",,100 µM,,inhibition,< 10%
CCOC(=O)/C=C/CNCCCCN1c2ccccc2CCc2ccc(Cl)cc21,"E3 ubiquitin-protein ligase NEDD4, HECT domain (Homo sapiens, UniProt P46934, L972F)","ubiquitin chain formation, inhibitor",,"10 µM, 30 min",,inhibition,no inhibition
CNc1nc(C#Cc2ccc(Cl)s2)nc2c1ncn2[C@H]1[C@H](O)[C@H](O)[C@]2(C#N)C[C@H]12,SLC6A4,"binding, radioligand binding",HEK293,"10 µM, negative means enhanced binding, added: [3H]citalopram",,inhibition,19 ± 11%
CS(=O)(=O)Oc1cccc(/C=C/c2c[nH]c3ccc(C#N)cc23)c1,APP Aβ1-40,"Aβ40 aggregation, thioflavin T fluorescence",,25 µM,,inhibition,57%
N#CC[C@@]12C[C@@H]1[C@@H](n1cnc3c(NCc4cccc(Cl)c4)nc(I)nc31)[C@H](O)[C@@H]2O,SLC6A4,"binding, radioligand binding",HEK293,"10 µM, negative means enhanced binding, added: [3H]citalopram",,inhibition,12 ± 3%
FC(F)(F)c1ccc2c(c1)CC/C2=N\OCCCN1CCCCC1,Sigmar1,radioligand binding,rat,10 µM,,inhibition,96%
N#Cc1ccc2[nH]cc(/C=C/c3cccc(F)c3)c2c1,APP Aβ1-40,"Aβ40 aggregation, thioflavin T fluorescence",,25 µM,,inhibition,0%
CCOC(=O)C1=C(C)NC2=C(C(=O)CC(C)(C)C2)C1c1ccc(OCC(=O)NN=Cc2cccc(C=O)c2)cc1OCC(=O)NN=Cc1cccc(C=O)c1 (centres unmarked),"MAL32 (Saccharomyces cerevisiae, UniProt P38158)",,,"0.5 mM, pH 6.8",,inhibition,92.5%
NC(=O)c1ccc(C(=O)NOCc2ccc(Sc3ccccc3F)c(C(F)(F)F)c2)cc1,SIRT6,"deacetylase activity, fluorogenic",,"100 µM, added: RHKK-ac-AMC",,inhibition,100%
CS(=O)(=O)Nc1cccc(/C=C/c2c[nH]c3ccc(C#N)cc23)c1,APP Aβ1-40,"Aβ40 aggregation, thioflavin T fluorescence",,25 µM,,inhibition,0%
O=C(CCc1ccccc1)N1CCC(O)(Cn2cnc3cc(Cl)ccc3c2=O)CC1,"USP7 (Homo sapiens, UniProt Q93009, Y514A)",enzyme activity,,"up to 100 µM, mutant catalytic domain, added: Ub-AMC",,inhibition,no inhibition
Fc1ccc2[nH]cc(/C=C/c3ccncc3)c2c1,APP Aβ1-40,"Aβ40 aggregation, thioflavin T fluorescence",,25 µM,,inhibition,24%
COC(=O)[C@@]1(C)C=C(C(=O)Nc2cccc(C(=O)NC34CC(Nc5nccc(-c6cccnc6)n5)(C3)C4)c2)C(=O)CC1,"MAPK10 (Homo sapiens, UniProt P53779)","enzyme activity, inhibitor",,44.44 µM,,remaining activity,0.0161 fraction of control
COC(=O)/C=C/CNC(=O)c1c(C)n(C2CCCC2)c2ccc(OC)cc12,"E3 ubiquitin-protein ligase NEDD4 (Homo sapiens, UniProt P46934)","ubiquitination, inhibitor, Ub-TR-FRET",,"100 µM, HECT domain",,inhibition,70.9 ± 11.9%
Nc1ncn([C@@H]2O[C@H](CO)[C@@H](O)[C@H]2O)c(=O)c1Cl,"ADORA2A (Homo sapiens, UniProt P29274)",radioligand binding,HEK293 membranes,10 µM,,inhibition,35 ± 11%
FC(F)(F)c1ccc2c(c1)CCC/C2=N\OCCCN1CCCCC1,Sigmar1,radioligand binding,rat,10 µM,,inhibition,95.1%
NCc1ccc(C(=O)NOCc2ccc(C(F)(F)F)cc2)cc1,SIRT6,"deacetylase activity, fluorogenic",,"100 µM, added: RHKK-ac-AMC",,inhibition,88.4 ± 0.33%
CCNC(=O)C(=O)[C@H](Cc1ccccc1)NC(=O)[C@H]1CCC(=O)N1Cc1ccc(F)cc1,CAPN1,"enzyme activity, inhibitor",,1 µM,,inhibition,85.2%
CN(C)C(=O)Cn1cc(-c2ccc(-c3cncc4ccncc34)cc2)cn1,"CDK1 (Homo sapiens, UniProt P06493)","enzyme activity, SelectScreen",,concentration not given,,inhibition,no inhibition
C/C(=N\OCCN1CCc2ccccc2CC1)c1ccc(C(F)(F)F)cc1,Sigmar1,radioligand binding,rat,10 µM,,inhibition,96%
O=C(OC(C(F)(F)F)C(F)(F)F)N1CCc2cccc(Br)c2C1,MGLL,"inhibitor, fluorescence",,"1 µM, added: AHMMCE substrate",,inhibition,inactive
O=C(NCc1ccc(F)cc1)C(=O)[C@H](Cc1ccccc1)NC(=O)[C@H]1CCC(=O)N1Cc1ccc(F)cc1,CAPN1,"enzyme activity, inhibitor",,1 µM,,inhibition,96.7%
CS(=O)(=O)Cc1onc(-c2cccc(Cl)c2)c1-c1ccnc(N[C@@H]2CCN(Cc3nccs3)C2)n1,"PRKG1 (Homo sapiens, UniProt Q13976)","kinase activity, inhibitor, IMAP",,"10 µM, added: FAM-IP3R peptide",,inhibition,13 ± 4%
Nc1ncc(-c2ccc3ncnc(N4CCc5cc(F)c(Cl)cc54)c3c2)cn1,,,"CD1 mouse, plasma","intraperitoneal, 50 mg/kg",,Tmax,1 h
CCCSc1nc(N[C@@H]2C[C@H]2c2ccc(F)c(F)c2)c2nnn([C@@H]3C[C@H](O)[C@@H](O)[C@H]3O)c2n1,"SLC6A3 (Homo sapiens, UniProt Q01959)",binding,,"concentration not given, human free Cmax",,inhibition,no inhibition
Cc1cc(NC(=O)c2cccc(NC(=O)C3=CC(C)(C)CC3=O)c2)ccc1Nc1nccc(-c2cccnc2)n1,"MAPK8 (Homo sapiens, UniProt P45983)","kinase activity, inhibitor",,"0.006774 µM, unit not given, added: 10 mM GSH",baseline: DMSO,remaining activity,0.946
CC[C@@]1(c2cccc(C)c2)C(=O)N(C(=O)OC)N1C(=O)OC,"Protein phosphatase methylesterase 1 (Mus musculus, UniProt Q8BVQ5)","inhibitor, competitive ABPP-MudPIT",mouse brain proteome,2 µM,baseline: DMSO,inhibition,inhibited
O=C(O)c1cc2c(s1)CCC2,"Protein tyrosine phosphatase type IVA 3, with CNNM4 CBS domain (PTP4A3, Homo sapiens, UniProt O75365)","protein-protein interaction, HTRF",,10 µM,,inhibition,60.2 ± 0.4%
CCCCCCCCCCCCNC(=S)NCCCC[C@H](NC(=O)CCCCCCCC)C(=O)N[C@H](C)C(=O)N[C@@H](CCCNC(=N)N)C(N)=O,"SIRT1 (Homo sapiens, UniProt Q96EB6)","deacetylation, inhibitor",,"10 µM, added: acetylated peptide 50 µM",,inhibition,55%
CC(=O)Nc1ccc(/C=C/c2c[nH]c3ccc(C#N)cc23)cc1,APP Aβ1-40,"Aβ40 aggregation, thioflavin T fluorescence",,25 µM,,inhibition,27%
C/C(=N\OCCN1CCC(N2CCOCC2)CC1)c1ccc(C(F)(F)F)cc1,Sigmar1,radioligand binding,rat,10 µM,,inhibition,82.7%
COc1ccc2c(c1)CN(C(=O)OC(C(F)(F)F)C(F)(F)F)C2,MGLL,"inhibitor, fluorescence",,"1 µM, added: AHMMCE substrate",,inhibition,inactive
OCC1C(O)C(O)C(O)CN1CCCC(F)(F)COCc1ccc(-c2ccccc2)cc1 (centres unmarked),GBA2,"inhibitor, FluoPol-ABPP competition",GBA2-overexpressing cell lysate,0.1 µM,,inhibition,3.1%
CCCCCCCCCCCCNC(=S)NCCCC[C@H](NS(=O)(=O)c1ccccc1)C(=O)N[C@H](C)C(=O)N[C@@H](CCCNC(=N)N)C(N)=O,SIRT3,"deacetylation, inhibitor",,"10 µM, added: acetylated peptide 50 µM",,inhibition,17%
Nc1ccc([N+](=O)[O-])cc1-c1nc2ccccc2[nH]c1=O,"Protein diaphanous homolog 2, FH2 domain (Diaph2, Mus musculus, UniProt O70566)","actin assembly, pyrene-actin polymerization",,concentration not given,,inhibition,inactive
Cc1cccc(C(=O)n2cc(C#N)c3ccccc32)c1,"Neutrophil elastase (ELANE, Homo sapiens, UniProt P08246)","enzyme activity, fluorogenic substrate",,up to 50 µM,,inhibition,inactive
COc1ccc2[nH]cc(CCc3ccncc3)c2c1,APP Aβ1-40,"Aβ40 aggregation, thioflavin T fluorescence",,25 µM,,inhibition,0%
CCNC(=O)C(=O)[C@H](Cc1ccccc1)NC(=O)[C@H]1CCC(=O)N1Cc1ccccc1,"Cathepsin K (CTSK, Homo sapiens, UniProt P43235)","enzyme activity, inhibitor",,1 µM,,inhibition,5.6%
OCC1C(O)C(O)C(O)CN1CC(F)(F)CCCOCc1ccc(-c2ccccc2)cc1 (centres unmarked),GBA2,"inhibitor, FluoPol-ABPP competition",GBA2-overexpressing cell lysate,0.1 µM,,inhibition,30.4%
CCOC(=O)[C@@]12C[C@@H]1[C@@H](n1cnc3c(NC)nc(C#Cc4ccc(Cl)s4)nc31)[C@H](O)[C@@H]2O,SLC6A4,"binding, radioligand binding",HEK293,"10 µM, negative means enhanced binding, added: [3H]citalopram",,inhibition,17 ± 9%
CS(=O)(=O)Oc1cccc(/C=C/c2c[nH]c3ccc(F)cc23)c1,APP Aβ1-40,"Aβ40 aggregation, thioflavin T fluorescence",,25 µM,,inhibition,73%
C[C@H](OCCCCCN1C[C@H](O)[C@@H](O)[C@H](O)[C@@H]1CO)c1ccc(-c2ccccc2)cc1,GBA2,"inhibitor, FluoPol-ABPP competition",GBA2-overexpressing cell lysate,0.1 µM,,inhibition,0.2%
O=C(OC(C(F)(F)F)C(F)(F)F)N1CCc2c(Br)cccc2C1,MGLL,"inhibitor, fluorescence",,"1 µM, added: AHMMCE substrate",,inhibition,inactive
O=C(CCl)Nc1ccc2c(Nc3ccccc3)ncnc2c1,"EPHB3 (Homo sapiens, UniProt P54753)","kinase activity, inhibitor",,2 µM,baseline: DMSO,inhibition,> 80%
COC(=O)/C(=C/c1c[nH]c2ccc(F)cc12)c1ccc(NS(C)(=O)=O)cc1,APP Aβ1-40,"Aβ40 aggregation, thioflavin T fluorescence",,25 µM,,inhibition,0%
CCCCCCCCCCCCNC(=S)NCCCC[C@H](NC(=O)c1ccccc1)C(=O)N[C@H](C)C(=O)N[C@@H](CCCNC(=N)N)C(N)=O,SIRT3,"deacetylation, inhibitor",,"10 µM, added: acetylated peptide 50 µM",,inhibition,21%
C/C(=N\OCCN1CCCCCC1)c1ccc(C(F)(F)F)cc1,Sigmar1,radioligand binding,rat,10 µM,,inhibition,99.7%
O=C(Nc1cccc(F)c1)c1cc(S(=O)(=O)N2CCOCC2)c(Cl)cc1Cl,"Autotaxin (ENPP2, Homo sapiens, UniProt Q13822)",enzyme activity,,"10 µM, 2 h, 37 °C, added: 100 µM LPC 18:1",,inhibition,51.8 ± 2.4%
